Results from different studies.
Each line is one published result; not all experiments were run side by side. Several values in a cell are separate wells, animals, samples, runs or records. Numbers after ± are the reported error.
ADORA2A: Adenosine receptor A2a (ADORA2A, Homo sapiens, UniProt P29274)
ache: Acetylcholinesterase (ache, Electrophorus electricus, UniProt O42275)
dcp2 with Dcp1: mRNA decapping complex subunit 2, with Dcp1 (dcp2, Schizosaccharomyces pombe, UniProt O13828)

SMILES	tested on	test	system	conditions	scale	quantity	result
Cc1ccc(OCCN(C)C)cc1C(=O)N[C@H](C)c1cc(-c2ccco2)nc2ccccc12	Vero E6	–	–	125 µM	–	viability	-3.46% and 4.23%
COC(=O)C(C)(COP(=O)(OC)OCCCCCCNC(=O)c1cc2ccccc2oc1=O)C(=O)CSC(C)=O (stereo not shown)	Retinal rod rhodopsin-sensitive cGMP 3',5'-cyclic phosphodiesterase subunit delta (PDE6D, Homo sapiens, UniProt O43924)	enzyme activity, inhibitor	–	5 µM	–	inhibition	23.7%
O=C1NC(=O)c2c1c1cc(F)c[n+]3c1c1c2c2cc(O)ccc2[n]1[Ru-4]312([N]=C=S)[S+]3CC[S+]1CC[S+]2CC3 (stereo not shown)	Receptor-interacting serine/threonine-protein kinase 2 (RIPK2, Homo sapiens, UniProt O43353)	enzyme activity	–	100 nM, human enzyme, added: 10 µM ATP	baseline: untreated	remaining activity	87%
Cc1cc(Nc2nc(C[C@@]3(C(=O)O)CCN(Cc4cccc(Cl)c4F)[C@H](C)C3)cc(C)c2F)[nH]n1	ADORA2A	inhibitor	–	10 µM	–	inhibition	-8.84%
CN[C@@H]1[C@H](O)[C@H](NC)[C@H]2O[C@]3(O)[C@H](O[C@@H]2[C@H]1O)O[C@H](C)C[C@H]3NC(=O)Cc1ccc(Cl)cn1	5-hydroxytryptamine receptor 3A (HTR3A, Homo sapiens, UniProt P46098)	ligand displacement, radioligand	–	10 µM	–	inhibition	-2%
Cc1ccc2c(n1)c(-c1cccc(S(C)(=O)=O)c1)c(C)n2C/C(F)=C/CN	Melanocyte-stimulating hormone receptor (MC1R, Homo sapiens, UniProt Q01726)	ligand displacement, radioligand	–	10 µM	–	inhibition	-3%
COc1nccc(-c2ccccc2)c1B(O)O	Beta-lactamase (ampC, Escherichia coli K-12, UniProt P00811)	enzyme activity, inhibitor, CENTA hydrolysis absorbance	–	10 µM	–	inhibition	< 10%
CS(C)(=O)=Nc1ccc(-c2ccc(-c3nc4cc(O[C@@H]5CO[C@H]6[C@@H]5OC[C@H]6O)[nH]c4cc3F)cc2)cc1	Adenosine receptor A3 (ADORA3, Homo sapiens, UniProt P0DMS8)	calcium signal, antagonist	–	10 µM	–	inhibition	7%
c1ccc(CN2CCNCC2)cc1	ache	enzyme activity, inhibitor, Ellman	–	20 µM	–	inhibition	36.6%
COc1ccc(F)cc1S(=O)(=O)Nc1cnc2c(c1)C(=O)NCCO2	Amine oxidase [flavin-containing] B (MAOB, Homo sapiens, UniProt P27338)	enzyme activity, inhibitor	–	10 µM	–	inhibition	-7%
CCOC(=O)[C@](CC)(CCCSCCOCCOCCNC(=O)c1ccc(-c2c3ccc(=N)c(S(=O)(=O)O)c-3oc3c(S(=O)(=O)O)c(N)ccc23)c(C(=O)O)c1)NC(=O)c1ccc(C2CC2)c(Cc2ccc(F)cc2)n1	PCP site (NMDA receptor)	specific binding, antagonist radioligand binding	–	10 µM	–	inhibition	4%
O=S(=O)(F)CCc1cn(Cc2ccccc2F)nn1	ache	Ellman	–	20 µM	–	inhibition	37 ± 2.8%
O=C(O)c1ccccc1/C=N/Nc1nc(-c2ccccc2Cl)cs1	Muscle, skeletal receptor tyrosine-protein kinase (MUSK, Homo sapiens, UniProt O15146)	enzyme activity, inhibitor	–	1 µM	–	inhibition	-2.8%
O=C(NC1CCN(c2ncnc3[nH]cnc23)CC1)c1cccc(NS(=O)(=O)c2ccc(C(F)(F)F)cc2)c1	Replicase polyprotein 1ab, nsp14 (Human coronavirus OC43, UniProt P0C6X6)	enzyme activity	–	0.01221 µM	–	inhibition	6.41%
C[C@H](NCc1ccc(-c2ccc(C(F)(F)F)cc2)cc1)C(N)=O	kainate receptor, rat	binding, radioligand binding	biochemical	1 µM, added: [3H]kainic acid 5.0 nM	–	inhibition	-1%
CCCCNC(=O)c1ccc2nc(CC)c(N(C)Cc3ccc(OC)cc3)n2c1	ache	enzyme activity, inhibitor, Ellman	–	5 µM	–	inhibition	63.4%

SMILES	tested on	test	system	conditions	scale	quantity	result
CC(=O)NC[C@@H]1[C@@H](O)C[C@H]2[C@H](O)C[C@@H](CO)N12	human placental β-N-acetylglucosaminidase	–	–	0.0856 µM, run 2, added: p-nitrophenyl GlcNAc	–	inhibition	57.9%
O=C(CN1CN(c2ccccc2)C2(CCN(C(=O)c3cnc4[nH]ncc4c3)CC2)C1=O)NCC(F)(F)F	Serine/threonine-protein kinase Chk1 (CHEK1, Homo sapiens, UniProt O14757)	inhibitor	–	concentration not given	–	inhibition	< 50%
N[C@H](C(=O)N1CCCC1)C1CCN(c2nccc3c(-c4ncc(Cl)cc4Cl)cccc23)CC1	Serine/threonine-protein kinase MARK1 (MARK1, Homo sapiens, UniProt Q9P0L2)	kinase activity, inhibitor	–	10 µM, added: ATP 1 mM	–	inhibition	6.8%
N#Cc1ccc(N2N=C3c4ccc(C(=O)O)cc4CCC3C2C2CCCC2)cc1Cl (stereo not shown)	Histone-arginine methyltransferase CARM1 (CARM1, Homo sapiens, UniProt Q86X55)	enzyme activity, inhibitor	–	10 µM	–	inhibition	2%
CN[C@@H]1[C@H](O)[C@H](NC)[C@H]2O[C@]3(O)[C@H](O[C@@H]2[C@H]1O)O[C@H](C)C[C@H]3NC(=O)Cc1cc(Cl)ccn1	ADORA2A	cell-free assay	–	10 µM	–	inhibition	-20%
O=C1NC2(CC2)COc2ncc(F)cc2[C@H]2COCCN2c2ccn3ncc1c3n2	–	–	Sprague-Dawley rat, female, kidneys	oral, 5 mg/kg/day, 4 weeks, end of treatment	–	organ-to-body weight ratio	0.62 ± 0.061%
O=[N+]([O-])c1cccc(Cn2cc(CCS(=O)(=O)F)nn2)c1	ache	enzyme activity, inhibitor, Ellman	–	20 µM	–	inhibition	43%
Cc1ccc(N2CC3CN(C)CC3C2)cc1C(=O)N[C@H](C)c1cc(-c2cnn(C)c2)nc2ccccc12 (stereo partly shown)	African green monkey cells	–	–	125 µM	–	viability	2.45%
CN(/N=C/c1ccccc1C(=O)O)c1nc(-c2ccccc2Cl)cs1	Discoidin domain-containing receptor 2 (DDR2, Homo sapiens, UniProt Q16832)	enzyme activity, inhibitor	–	1 µM	–	inhibition	-41.8%
CN(C)[C@H]1C[C@@]23CC[C@@]4(O2)C(=CC[C@]2(C)[C@@H](c5ccc6ccncc6c5)CC[C@H]24)C=C3[C@@H](O)[C@@H]1O	Mitogen-activated protein kinase 6 (MAPK6, Homo sapiens, UniProt Q16659)	ATP probe labelling, inhibitor, KiNativ profiling	–	1 µM	–	inhibition	2.4%
COc1ccccc1N1CCN(CCCCN2CCCc3ccccc3C2=O)CC1	5-hydroxytryptamine receptor 7 (HTR7, Homo sapiens, UniProt P34969)	radioligand binding	–	concentration not given, added: [3H]LSD	–	inhibition	99.1%
BP(=O)(OC[C@H]1O[C@@H](n2c[n+](C)c3c(O)nc(N)nc32)[C@H](O)[C@@H]1O)OP(=O)([O-])CP(=O)(O)O (stereo partly shown)	dcp2 with Dcp1	–	–	200 µM, 0.5 h	–	inhibition	40%
NCc1ccncc1	ache	enzyme activity, inhibitor, Ellman	–	20 µM	–	inhibition	31.2%
C[n+]1cn([C@@H]2O[C@H](COP(=O)([S-])OP(=O)(O)CP(=O)(O)O)[C@@H](O)[C@H]2O)c2nc(N)nc(O)c21 (stereo partly shown)	dcp2 with Dcp1	–	–	200 µM, 0.5 h	–	inhibition	29.2%
CC(C)[C@H]1NC(=O)C[C@H]2/C=C/CCSSC[C@@H](NC1=O)C(=O)N[C@H](Cc1cccc3ccccc13)C(=O)NCC(=O)O2	Tyrosine-protein kinase JAK1 (JAK1, Homo sapiens, UniProt P23458)	enzyme activity, inhibitor	–	10 µM	–	inhibition	2.6%

Excerpt of the above:
SMILES	tested on	test	system	conditions	scale	quantity	result
O=C1NC2(CC2)COc2ncc(F)cc2[C@H]2COCCN2c2ccn3ncc1c3n2	–	–	Sprague-Dawley rat, female, kidneys	oral, 5 mg/kg/day, 4 weeks, end of treatment	–	organ-to-body weight ratio	0.62 ± 0.061%
O=[N+]([O-])c1cccc(Cn2cc(CCS(=O)(=O)F)nn2)c1	ache	enzyme activity, inhibitor, Ellman	–	20 µM	–	inhibition	43%
Cc1ccc(N2CC3CN(C)CC3C2)cc1C(=O)N[C@H](C)c1cc(-c2cnn(C)c2)nc2ccccc12 (stereo partly shown)	African green monkey cells	–	–	125 µM	–	viability	2.45%
CN(/N=C/c1ccccc1C(=O)O)c1nc(-c2ccccc2Cl)cs1	Discoidin domain-containing receptor 2 (DDR2, Homo sapiens, UniProt Q16832)	enzyme activity, inhibitor	–	1 µM	–	inhibition	-41.8%
CN(C)[C@H]1C[C@@]23CC[C@@]4(O2)C(=CC[C@]2(C)[C@@H](c5ccc6ccncc6c5)CC[C@H]24)C=C3[C@@H](O)[C@@H]1O	Mitogen-activated protein kinase 6 (MAPK6, Homo sapiens, UniProt Q16659)	ATP probe labelling, inhibitor, KiNativ profiling	–	1 µM	–	inhibition	2.4%
